{"data": "Experimental data from different studies", "note": "Each line is one published result; not all experiments were run side by side. ± gives the spread as reported.", "sequence of UniProt P21729 (whole entry, looked up)": "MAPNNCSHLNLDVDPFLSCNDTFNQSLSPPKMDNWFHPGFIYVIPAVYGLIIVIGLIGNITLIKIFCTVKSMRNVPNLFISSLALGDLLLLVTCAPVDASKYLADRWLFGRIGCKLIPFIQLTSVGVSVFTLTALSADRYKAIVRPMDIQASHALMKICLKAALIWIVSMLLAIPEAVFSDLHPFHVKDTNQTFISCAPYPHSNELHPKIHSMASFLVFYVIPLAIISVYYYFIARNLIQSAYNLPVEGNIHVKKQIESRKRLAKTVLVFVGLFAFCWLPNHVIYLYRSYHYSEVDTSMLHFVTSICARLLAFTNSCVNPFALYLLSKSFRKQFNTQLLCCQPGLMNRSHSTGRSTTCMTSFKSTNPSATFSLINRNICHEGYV"}
{"SMILES": "CCC(=O)N(C)c1ccc(Cl)c(Cl)c1", "tested on": "Escherichia coli", "test": "Ames test", "test system": "WP2 uvrA", "conditions": "0.10 mg/plate, without S9 activation", "endpoint": "revertants", "result": "28 ± 11.2 revertants/plate"}
{"SMILES": "C[C@@](O)(C(F)F)[C@H](NC(=O)c1ccc(C#CC#CC2CC2)cc1)C(=O)NO", "test system": "dog, plasma", "conditions": "intravenous, 100 mg/kg", "endpoint": "Vd", "result": "1.1 L/kg"}
{"SMILES": "CCCC[C@H](NC(=O)CCCCCCCNC(=O)c1ccc(NN)nc1)C(=O)N[C@H]1CC(=O)NCCCC[C@@H](C(N)=O)NC(=O)[C@H](Cc2c[nH]c3ccccc23)NC(=O)[C@H](CCCNC(=N)N)NC(=O)[C@@H](Cc2ccccc2)NC(=O)[C@H](Cc2c[nH]cn2)NC1=O [technetium-99m labelled]", "test system": "C57 mouse, B16/F1 melanoma, urine", "conditions": "intravenous, 0.037 MBq, 2 h", "endpoint": "tissue uptake", "result": "88.5 ± 2.23 %ID"}
{"SMILES": "C=Cc1c(C)c2cc3nc(c4c5[nH]c(cc6nc(cc1[nH]2)C(C)=C6CC)c(C)c5C(=O)C4)[C@@H](CCC(=O)NCC(=O)N1CCC[C@H]1C(=O)N[C@@H](CC(C)C)C(=O)NCC(=O)N[C@@H](Cc1ccccc1)C(=O)N[C@@H](CCCNC(=N)N)C(=O)N[C@H](C(=O)NCC(=O)N[C@@H](CCCCN)C(N)=O)C(C)C)[C@@H]3C", "tested on": "OA patient synovial fibroblasts", "test": "flow cytometry, measured: cellular uptake", "conditions": "1 µM, 6 h", "endpoint": "fluorescent cells", "result": "80%"}
{"SMILES": "CCCNC(=O)[C@H](CC(C)C)NC(=O)[C@H](Cc1c[nH]cn1)NC(=O)CNC(=O)[C@@H](NC(=O)[C@H](C)NC(=O)[C@H](Cc1c[nH]c2ccccc12)NC(=O)[C@H](CCC(N)=O)NC(=O)[C@@H](Cc1ccccc1)NC(=O)CCCCCNC(=O)CN1CCN(CC(=O)O)CCN(CC(=O)O)CCN(CC(=O)O)CC1)C(C)C [indium-111 labelled]", "tested on": "Gastrin-releasing peptide receptor (Mus musculus, UniProt P21729)", "test": "biodistribution", "test system": "CF-1 mice, blood", "conditions": "intravenous, 1 h, added: bombesin 100 µg, blocking", "endpoint": "tissue uptake", "result": "0.24 ± 0.02 %ID/g"}
{"SMILES": "CC(C)C[C@@H]1NC(=O)[C@H](C(C)C)NC(=O)[C@H](CO)NC(=O)CNC(=O)CNC(=O)[C@H](CCCNC(=N)N)NC(=O)[C@@H]2CCCN2C(=O)[C@@H](NC(=O)CC[C@H](NC(=O)c2ccc(N(C)Cc3cnc4nc(N)nc(N)c4n3)cc2)C(=O)O)C(C)(C)SSC[C@@H](C(=O)O)NC(=O)CNC(=O)[C@H]([C@@H](C)O)NC(=O)[C@H](C(C)C)NC1=O", "test": "HPLC", "test system": "Phosphate buffer", "conditions": "pH 7.0, 70 °C", "endpoint": "degradation rate constant", "result": "0.0012 h⁻¹"}
{"SMILES": "CC(C)C[C@H](NC(=O)[C@@H]1CCCN1C(=O)[C@H](CCCCN)NC(=O)[C@@H](N)CO)C(=O)N1CCC[C@H]1C(=O)N[C@@H](CCC(=O)O)C(=O)N[C@H](C(=O)N[C@H](C(=O)N[C@@H](CC(=O)O)C(=O)N[C@@H](CCC(=O)O)C(=O)N[C@@H](Cc1ccc(O)cc1)C(=O)N[C@@H](Cc1cn(CCOCCOCCOCCNC(=O)CCc2ccc(O)c(CN(CCN(CC(=O)O)Cc3cc(CCC(=O)NCCCC[C@H](NC(=O)N[C@@H](CCC(=O)O)C(=O)O)C(=O)O)ccc3O)CC(=O)O)c2)nn1)C(=O)O)[C@@H](C)O)C(C)C [gallium-68 labelled]", "test system": "NMRI nu/nu mice, LNCaP tumour, testes", "conditions": "135.34 nmol/kg, low molar activity", "endpoint": "standardized uptake value", "result": "0.05 g/g"}
{"SMILES": "N=C(N)NCCC[C@@H]1NC(=O)[C@H](CCCCNC(=O)CC[C@H](NC(=O)CCOCCOCCOCCOCCNC(=O)CC[C@H](NC(=O)CN2CCN(CC(=O)O)CCN(CC(=O)O)CCN(CC(=O)O)CC2)C(=O)NCCOCCOCCOCCOCCC(=O)N[C@@H](CCC(=O)NCCCC[C@@H]2NC(=O)[C@@H](Cc3ccccc3)NC(=O)[C@H](CC(=O)O)NC(=O)CNC(=O)[C@H](CCCNC(=N)N)NC2=O)C(=O)NCCCC[C@@H]2NC(=O)[C@@H](Cc3ccccc3)NC(=O)[C@H](CC(=O)O)NC(=O)CNC(=O)[C@H](CCCNC(=N)N)NC2=O)C(=O)NCCCC[C@@H]2NC(=O)[C@@H](Cc3ccccc3)NC(=O)[C@H](CC(=O)O)NC(=O)CNC(=O)[C@H](CCCNC(=N)N)NC2=O)NC(=O)[C@@H](Cc2ccccc2)NC(=O)[C@H](CC(=O)O)NC(=O)CNC1=O [indium-111 labelled]", "test system": "athymic nude mice, female, U-87 MG glioma xenograft, bone", "conditions": "intravenous, 3 µCi, 72 h", "endpoint": "tissue uptake", "result": "0.34 ± 0.03 %ID/g"}
{"SMILES": "CCCC[C@H](NC(=O)CNC(=O)CNC(=O)c1ccc(NN)nc1)C(=O)N[C@H]1CC(=O)NCCCC[C@@H](C(N)=O)NC(=O)[C@H](Cc2c[nH]c3ccccc23)NC(=O)[C@H](CCCNC(=N)N)NC(=O)[C@@H](Cc2ccccc2)NC(=O)[C@H](Cc2c[nH]cn2)NC1=O [technetium-99m labelled]", "test system": "C57 mouse, B16/F1 melanoma, urine", "conditions": "intravenous, 4 h", "endpoint": "uptake", "result": "92.3 ± 1.73 %ID"}
{"SMILES": "CCCCCCCCCCCCCCCCCC(=O)OC[C@H](NC(=O)[C@H](Cc1c[nH]c2ccccc12)NC(=O)[C@H](Cc1c[nH]cn1)NC(=O)[C@@H]1CCC(=O)N1)C(=O)N[C@@H](Cc1ccc(O)cc1)C(=O)N[C@H](CC(C)C)C(=O)N[C@@H](CC(C)C)C(=O)N[C@@H](CCCNC(=N)N)C(=O)N1CCC[C@H]1C(=O)NCC", "test system": "human plasma", "conditions": "1 mg/mL, 5 weeks, 37 °C, from DMSO stock", "endpoint": "degradation", "result": "99.3%"}
{"SMILES": "COc1cc(OC)cc(C2=C3c4ccccc4C(c4ccc(NC(=S)S[C@@H]5O[C@H](CO)[C@@H](O)[C@H](O)[C@H]5O)cc4)=[N+]3[B-](F)(F)n3c2c2ccccc2c3-c2ccc(NC(=S)NCCOCCOCCOCCC(=O)N[C@@H](CC(C)C)C(=O)N[C@@H](C)C(=O)N[C@@H](CCCNC(=N)N)C(=O)N[C@@H](CC(C)C)C(=O)N[C@@H](CC(C)C)C(=O)N[C@H](C(N)=O)[C@@H](C)O)cc2)c1", "test system": "DMSO", "endpoint": "emission maximum", "result": "696 nm"}
{"SMILES": "N=C(N)NCCC[C@@H]1NC(=O)[C@H](CCCCNC(=O)CNC(=O)CNC(=O)CNC(=O)CC[C@H](NC(=O)CCOCCOCCOCCOCCNC(=O)CC[C@H](NC(=O)CN2CCN(CC(=O)O)CCN(CC(=O)O)CCN(CC(=O)O)CC2)C(=O)NCCOCCOCCOCCOCCC(=O)N[C@@H](CCC(=O)NCC(=O)NCC(=O)NCC(=O)NCCCC[C@@H]2NC(=O)[C@@H](Cc3ccccc3)NC(=O)[C@H](CC(=O)O)NC(=O)CNC(=O)[C@H](CCCNC(=N)N)NC2=O)C(=O)NCC(=O)NCC(=O)NCC(=O)NCCCC[C@@H]2NC(=O)[C@@H](Cc3ccccc3)NC(=O)[C@H](CC(=O)O)NC(=O)CNC(=O)[C@H](CCCNC(=N)N)NC2=O)C(=O)NCC(=O)NCC(=O)NCC(=O)NCCCC[C@@H]2NC(=O)[C@@H](Cc3ccccc3)NC(=O)[C@H](CC(=O)O)NC(=O)CNC(=O)[C@H](CCCNC(=N)N)NC2=O)NC(=O)[C@@H](Cc2ccccc2)NC(=O)[C@H](CC(=O)O)NC(=O)CNC1=O [indium-111 labelled]", "test system": "female athymic nude mice, brain", "conditions": "intravenous, 3 µCi, 0.5 h, U-87 MG glioma xenograft", "endpoint": "tissue uptake", "result": "0.2 ± 0.1 %ID/g"}
{"SMILES": "CN[C@](C)(C[18F])C(=O)O", "tested on": "DU-145 tumour model", "test system": "host not given, pancreas", "conditions": "15 min, tumour-bearing", "endpoint": "tracer uptake", "result": "46 %ID/g"}
{"SMILES": "N=C(N)NCCC[C@@H]1NC(=O)[C@H](CCCCNC(=O)CC[C@H](NC(=O)CCOCCOCCOCCOCCNC(=O)CN2CCN(CC(=O)O)CCN(CC(=O)O)CCN(CC(=O)O)CC2)C(=O)NCCCC[C@@H]2NC(=O)[C@@H](Cc3ccccc3)NC(=O)[C@H](CC(=O)O)NC(=O)CNC(=O)[C@H](CCCNC(=N)N)NC2=O)NC(=O)[C@@H](Cc2ccccc2)NC(=O)[C@H](CC(=O)O)NC(=O)CNC1=O [indium-111 labelled]", "test system": "athymic nude mice, female, U-87 MG glioma xenograft, tumour and liver", "conditions": "intravenous, 24 h", "scale": "baseline: tumour over liver", "endpoint": "tumour to tissue ratio", "result": "2.04 ± 0.4"}
{"SMILES": "CSCC[C@H](NC(=O)[C@H](CC(C)C)NC(=O)[C@H](Cc1c[nH]cn1)NC(=O)CNC(=O)[C@@H](NC(=O)[C@H](C)NC(=O)[C@H](Cc1c[nH]c2ccccc12)NC(=O)[C@H](CCC(N)=O)NC(=O)CCCCCNC(=O)CNC(=O)CNC(=O)CNC(=O)CSC(C)=O)C(C)C)C(N)=O [technetium-99m labelled]", "test system": "Swiss mouse, spleen", "conditions": "intravenous, 18.5 MBq, 90 min", "endpoint": "tissue uptake", "result": "0.29 ± 0.08 %ID/g"}
{"note": "For quick reference, copied from above:"}
{"SMILES": "N=C(N)NCCC[C@@H]1NC(=O)[C@H](CCCCNC(=O)CC[C@H](NC(=O)CCOCCOCCOCCOCCNC(=O)CC[C@H](NC(=O)CN2CCN(CC(=O)O)CCN(CC(=O)O)CCN(CC(=O)O)CC2)C(=O)NCCOCCOCCOCCOCCC(=O)N[C@@H](CCC(=O)NCCCC[C@@H]2NC(=O)[C@@H](Cc3ccccc3)NC(=O)[C@H](CC(=O)O)NC(=O)CNC(=O)[C@H](CCCNC(=N)N)NC2=O)C(=O)NCCCC[C@@H]2NC(=O)[C@@H](Cc3ccccc3)NC(=O)[C@H](CC(=O)O)NC(=O)CNC(=O)[C@H](CCCNC(=N)N)NC2=O)C(=O)NCCCC[C@@H]2NC(=O)[C@@H](Cc3ccccc3)NC(=O)[C@H](CC(=O)O)NC(=O)CNC(=O)[C@H](CCCNC(=N)N)NC2=O)NC(=O)[C@@H](Cc2ccccc2)NC(=O)[C@H](CC(=O)O)NC(=O)CNC1=O [indium-111 labelled]", "test system": "athymic nude mice, female, U-87 MG glioma xenograft, bone", "conditions": "intravenous, 3 µCi, 72 h", "endpoint": "tissue uptake", "result": "0.34 ± 0.03 %ID/g"}
